Results pooled from the literature.
Organism: Acinetobacter baumannii

Structure (SMILES)	test	test system	conditions	scale	MIC
CC[C@H](C)[C@H](NC(=O)[C@H](CC(C)C)NC(=O)[C@H](CCCNC(=N)N)NC(=O)[C@@H](N)CCCNC(=N)N)C(=O)N[C@@H](CC(C)C)C(=O)N[C@H](C(=O)N[C@@H](CCCCN)C(=O)N[C@H](C(=O)NCC(=O)N1CCC[C@H]1C(=O)N[C@H](C(=O)N[C@H](C(=O)N[C@@H](Cc1ccc(O)cc1)C(=O)N[C@@H](CCCCN)C(=O)N[C@@H](Cc1ccc(O)cc1)C(=O)N[C@@H](Cc1ccccc1)C(=O)N[C@@H](CCCCN)C(=O)N[C@@H](CCCCN)C(=O)N[C@@H](CCC(N)=O)C(=O)N[C@@H](CC(C)C)C(=O)N[C@@H](CC(C)C)C(=O)N[C@@H](CCCCN)C(=O)N[C@@H](CC(C)C)C(N)=O)[C@@H](C)CC)[C@@H](C)CC)[C@@H](C)O)[C@@H](C)O	–	ATCC BAA1605, Mueller-Hinton broth	24 h	–	2 µM
CC[C@H](C)[C@H](NC(=O)[C@H](CC(C)C)NC(=O)[C@H](CCCNC(=N)N)NC(=O)[C@H](CCCNC(=N)N)NC(=O)[C@H](CCCNC(=N)N)NC(=O)[C@H](CCCNC(=N)N)NC(=O)[C@H](CC(C)C)NC(=O)[C@@H](NC(=O)[C@@H](NC(=O)[C@@H](NC(=O)[C@H](CC(C)C)NC(=O)[C@H](CCCNC(=N)N)NC(=O)[C@H](CO)NC(=O)[C@@H](N)CO)C(C)C)[C@@H](C)CC)[C@@H](C)CC)C(=O)N[C@@H](CO)C(=O)N[C@@H](CCCNC(=N)N)C(=O)N[C@@H](CCCNC(=N)N)C(=O)N[C@@H](CCCNC(=N)N)C(=O)N[C@@H](CCCNC(=N)N)C(N)=O	broth microdilution	ATCC 17978	highest value reported	–	1 µM
CC(=O)N[C@@H](CCCCN)C(=O)N[C@@H](CCCCN)C(=O)N[C@@H](C)C(=O)N[C@@H](CC(C)C)C(=O)N[C@@H](CCCCN)C(=O)N[C@@H](CC(C)C)C(=O)N[C@@H](C)C(=O)N[C@@H](CCCCN)C(=O)N[C@@H](CCCCN)C(=O)N1CCC[C@H]1C(=O)N[C@@H](CC(C)C)C(=O)N[C@@H](CCCCN)C(=O)N[C@@H](CC(C)C)C(=O)N[C@@H](CC(C)C)C(=O)N[C@@H](CCCCN)C(N)=O	broth microdilution	ATCC 17978	18 h, 37 °C, compound alone	–	> 80 µM
CN1C(=O)Cc2ccc(F)c(CNCCCC3CN(c4ccc5c(n4)NC(=O)CO5)C(=O)O3)c21 (stereo not shown)	–	ATCC 19606	–	–	0.25 µg/mL
C[C@@H](O)[C@H]1C(=O)N2C(C(=O)O)=C(SCCN=CN)C[C@H]12	–	CCARM 12005 carbapenem-resistant, Mueller-Hinton broth	16 h, 37 °C	–	128 µM
C[C@@H](O)[C@H]1C(=O)N2C(C(=O)O)=C(SCCN=CN)C[C@H]12	–	carbapenem-resistant clinical isolate	–	–	> 64 µg/mL
CC[C@H](C)[C@H](NC(=O)CNC(=O)[C@H](CC(=O)O)NC(=O)[C@H](CCCNC(=N)N)NC(=O)[C@@H](NC(=O)[C@H](CC(N)=O)NC(=O)[C@H](CCCNC(=N)N)NC(=O)CNC(=O)[C@@H](NC(=O)[C@H](CCCCN)NC(=O)[C@H](CCC(=O)O)NC(=O)[C@@H](NC(=O)[C@H](CCCCN)NC(=O)[C@H](CCCCN)NC(=O)[C@H](C)NC(=O)[C@@H](NC(=O)[C@H](CCCCN)NC(=O)[C@H](C)NC(=O)[C@@H](N)CCCNC(=N)N)[C@@H](C)CC)[C@@H](C)CC)C(C)C)C(C)C)C(=O)N[C@H](C(=O)N[C@@H](CCCCN)C(=O)N[C@@H](C)C(=O)NCC(=O)N1CCC[C@H]1C(=O)N[C@@H](C)C(=O)N[C@H](C(=O)N[C@@H](C)C(=O)N[C@H](C(=O)N[C@H](C(=O)NCC(=O)N[C@@H](CCC(N)=O)C(=O)N[C@@H](C)C(=O)N[C@@H](C)C(=O)N[C@H](C(=O)N[C@H](C(=O)N[C@H](C(=O)N[C@@H](CCCCN)C(N)=O)C(C)C)C(C)C)[C@@H](C)O)C(C)C)C(C)C)C(C)C)[C@@H](C)CC	–	KCCM 40203, Mueller-Hinton broth	16 h, 37 °C	growth inhibition over 99%	16 µM
C[C@@H](O)[C@H]1C(=O)N2C(C(=O)O)=C(S[C@@H]3CN[C@H](C(=O)N(C)C)C3)[C@H](C)[C@H]12	–	1189854, multidrug-resistant	–	–	> 8 µg/mL
CC[C@H](C)[C@H](NC(=O)CNC(=O)[C@H](CC(=O)O)NC(=O)[C@H](CCCNC(=N)N)NC(=O)[C@@H](NC(=O)[C@H](CC(N)=O)NC(=O)[C@H](CCCNC(=N)N)NC(=O)CNC(=O)[C@@H](NC(=O)[C@H](CCCCN)NC(=O)[C@H](CCC(=O)O)NC(=O)[C@@H](NC(=O)[C@H](CCC(=O)O)NC(=O)[C@H](CCCCN)NC(=O)[C@H](Cc1ccccc1)NC(=O)[C@@H](NC(=O)[C@H](CCCCN)NC(=O)[C@H](Cc1c[nH]c2ccccc12)NC(=O)[C@@H](N)CCCNC(=N)N)[C@@H](C)CC)[C@@H](C)CC)C(C)C)C(C)C)C(=O)N[C@H](C(=O)N[C@@H](CCCCN)C(=O)N[C@@H](C)C(=O)NCC(=O)N1CCC[C@H]1C(=O)N[C@@H](C)C(=O)N[C@H](C(=O)N[C@@H](C)C(=O)N[C@H](C(=O)N[C@H](C(=O)NCC(=O)N[C@@H](CCC(N)=O)C(=O)N[C@@H](C)C(=O)N[C@@H](C)C(=O)N[C@H](C(=O)N[C@H](C(=O)N[C@H](C(=O)N[C@@H](CCCCN)C(N)=O)C(C)C)C(C)C)[C@@H](C)O)C(C)C)C(C)C)C(C)C)[C@@H](C)CC	–	KCCM 40203, Mueller-Hinton broth	16 h, 37 °C	growth inhibition over 99%	8 µM
CC[C@H](C)[C@H](NC(=O)[C@H](CC(C)C)NC(=O)[C@H](CCCNC(=N)N)NC(=O)[C@@H](N)CCCNC(=N)N)C(=O)N[C@@H](CCCNC(=N)N)C(=O)N[C@@H](CCCCN)C(=O)N[C@@H](CC(C)C)C(=O)N[C@@H](CCCCN)C(=O)NCC(=O)N1CCC[C@H]1C(=O)N[C@@H](CCCCN)C(=O)N[C@H](C(=O)N[C@@H](Cc1ccc(O)cc1)C(=O)N[C@@H](CC(C)C)C(=O)N[C@@H](Cc1ccc(O)cc1)C(=O)N[C@@H](Cc1ccccc1)C(=O)N[C@@H](CCCCN)C(=O)N[C@@H](CC(C)C)C(=O)N[C@@H](CCC(N)=O)C(=O)N[C@@H](CC(C)C)C(=O)N[C@@H](CC(C)C)C(=O)N[C@@H](CCCCN)C(=O)N[C@@H](CCCCN)C(N)=O)[C@@H](C)CC	–	KCCM 40203, Mueller-Hinton broth	24 h	–	8 µM

Excerpt of the above:
Structure (SMILES)	test	test system	conditions	scale	MIC
CC[C@H](C)[C@H](NC(=O)CNC(=O)[C@H](CC(=O)O)NC(=O)[C@H](CCCNC(=N)N)NC(=O)[C@@H](NC(=O)[C@H](CC(N)=O)NC(=O)[C@H](CCCNC(=N)N)NC(=O)CNC(=O)[C@@H](NC(=O)[C@H](CCCCN)NC(=O)[C@H](CCC(=O)O)NC(=O)[C@@H](NC(=O)[C@H](CCCCN)NC(=O)[C@H](CCCCN)NC(=O)[C@H](C)NC(=O)[C@@H](NC(=O)[C@H](CCCCN)NC(=O)[C@H](C)NC(=O)[C@@H](N)CCCNC(=N)N)[C@@H](C)CC)[C@@H](C)CC)C(C)C)C(C)C)C(=O)N[C@H](C(=O)N[C@@H](CCCCN)C(=O)N[C@@H](C)C(=O)NCC(=O)N1CCC[C@H]1C(=O)N[C@@H](C)C(=O)N[C@H](C(=O)N[C@@H](C)C(=O)N[C@H](C(=O)N[C@H](C(=O)NCC(=O)N[C@@H](CCC(N)=O)C(=O)N[C@@H](C)C(=O)N[C@@H](C)C(=O)N[C@H](C(=O)N[C@H](C(=O)N[C@H](C(=O)N[C@@H](CCCCN)C(N)=O)C(C)C)C(C)C)[C@@H](C)O)C(C)C)C(C)C)C(C)C)[C@@H](C)CC	–	KCCM 40203, Mueller-Hinton broth	16 h, 37 °C	growth inhibition over 99%	16 µM
CN1C(=O)Cc2ccc(F)c(CNCCCC3CN(c4ccc5c(n4)NC(=O)CO5)C(=O)O3)c21 (stereo not shown)	–	ATCC 19606	–	–	0.25 µg/mL
